Measured values of several laboratories.
Lines come from different studies, so protocols differ.
Organism: Trypanosoma brucei

SMILES	assay	test system	setting	EC50 [µM]
CN(C)c1ccc(N2C(=O)CN(Cc3ccc(F)cc3)C2=S)cc1Cl	parasite growth, resazurin		48 h	0.003
N[C@H](C(=O)O)[C@H]1CC(Cl)=NN1Cc1ccccc1 (relative stereo)	parasite growth, resazurin		72 h	56.2
Nc1nc(Nc2ccccc2)sc1C(=O)c1c(F)cccc1F	cell proliferation, resazurin	bloodstream form	73 h	0.2
N#CC1CCN(C(=O)Nc2ccc3sc(-c4ccc(F)c(F)c4)nc3c2)C1 (stereo not shown)	parasite growth, resazurin		48 h	1.5 to 8
NCCN1N=C(Cl)CC1C(N)C(=O)O (stereo not shown)	parasite growth, resazurin		72 h	23.7
Nc1nc(NCCc2ccccc2)sc1C(=O)c1ccccc1	cell proliferation, resazurin	bloodstream form	73 h	6
CC1CCCCN1C(=O)NCCc1nc(-c2cccc(F)c2)cs1 (stereo not shown)	parasite growth			< 0.05
COc1ccc2c(C[Se][C@@H]3O[C@H](CO)[C@H](O)[C@H](O)[C@H]3O)cc(=O)oc2c1	parasite growth		24 h	4.1
O=C(NCCc1nc(-c2cccc(F)c2)cs1)N1CCc2ccccc2C1	parasite growth, resazurin		48 h	> 5
CC1CS(=O)(=O)CCN1/N=C/c1ccc([N+](=O)[O-])o1 (stereo not shown)	parasite growth		24 h	6
O=C(O)C1=CC(=C(c2ccc(O)c(C(=O)O)c2)c2ccc(O)c(C(=O)O)c2)C=CC1=O	cell viability, flow cytometry, PI	bloodstream form	24 h	> 25
Nc1nc(NC2CCCCC2)sc1C(=O)c1ccccc1	cell proliferation, resazurin	bloodstream form	73 h	0.1
CN(C)C1=NO[C@H]([C@H](N)C(=O)O)C1	parasite growth, resazurin		72 h	> 100
O=C(NCCc1nc(-c2cccc(F)c2)cs1)N1CCCc2ccccc21	parasite growth, resazurin		48 h	> 5
N[C@H](C(=O)O)[C@@H]1CC(Cl)=NO1	parasite growth, resazurin		72 h	0.45
CC(C)(C)C(=O)c1sc(NC2CCCCC2)nc1N	cell proliferation, resazurin	bloodstream form	73 h	0.3
O=C(Nc1ccc2oc(-c3ccccc3)nc2c1)N1CCCCC1	parasite growth, resazurin		48 h	≥ 2.8
CC(=O)OC[C@H]1O[C@@H]([Se]Cc2ccc3ccccc3n2)[C@H](OC(C)=O)[C@@H](OC(C)=O)[C@@H]1OC(C)=O	parasite growth		24 h	1.2
CCN1N=C(Cl)C[C@H]1[C@H](N)C(=O)O (relative stereo)	parasite growth, resazurin		72 h	> 500

A few entries again:
SMILES	assay	test system	setting	EC50 [µM]
CN(C)c1ccc(N2C(=O)CN(Cc3ccc(F)cc3)C2=S)cc1Cl	parasite growth, resazurin		48 h	0.003
Nc1nc(NCCc2ccccc2)sc1C(=O)c1ccccc1	cell proliferation, resazurin	bloodstream form	73 h	6
O=C(O)C1=CC(=C(c2ccc(O)c(C(=O)O)c2)c2ccc(O)c(C(=O)O)c2)C=CC1=O	cell viability, flow cytometry, PI	bloodstream form	24 h	> 25
